Results pooled from the literature.
Numbered parts are unrelated; each lists some results of a single study. Positions count from the first letter of the parent shown.

Block 1 — method: RNA Bind-n-Seq; molecule type: RNA; matrix: in vitro; tested at: not given; baseline: input RNA pool; reading: higher = stronger binding; quantity: bound/input enrichment
Target: RING finger protein unkempt homolog, zinc fingers 1-6, GST-SBP tag (UNK, Homo sapiens, UniProt Q9C0B0, residues 30-357)
Notes: RNA with constant flanks, human-mouse chimeric sites, ends assumed
All sequences stand within: GGGAGUUCUACAGUCCGACGAUC … CAACAGAGGAUUGAGCAUCA
Residues (chain): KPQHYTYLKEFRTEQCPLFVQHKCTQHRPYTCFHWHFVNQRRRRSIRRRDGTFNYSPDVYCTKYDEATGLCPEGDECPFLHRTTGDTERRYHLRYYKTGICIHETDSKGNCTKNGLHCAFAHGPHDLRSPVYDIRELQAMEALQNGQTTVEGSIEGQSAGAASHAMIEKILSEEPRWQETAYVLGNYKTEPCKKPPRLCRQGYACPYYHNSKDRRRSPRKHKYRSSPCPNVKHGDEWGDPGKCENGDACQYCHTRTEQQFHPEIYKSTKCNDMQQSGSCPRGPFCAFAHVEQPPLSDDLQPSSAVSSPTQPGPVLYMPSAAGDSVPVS
GAUGAUAAUCACACAAAUGUGGCACUUUUACAUGACCAGCCUUGGGAUUCUUUUCCUGAUUAAUAUUCUCCCUGGAACCACUGGUCAAGGGGAAUCAAGACGACAAGAACCUGGGGACUU: 0.114 ratio
UUUCUACUGCAGCAGACGAUGCUAAGAAUUAAGGAUCCUAAGAAGUCCCUGGAUUUUUAUACGAGGGUUCUUGGACUGACCCUCCUGCAGAAGCUUGAUUUUCCCAUUAUGAAGUUCUCG: 0.238 ratio
UUUGUAUUCAUGUUAAGCACACGUGCUGGUGGUCUGGGCAUCAAUCUUGCGACUGCUGAUGUAGUCAUUUUAUAUGACUCAGAUUGGAAUCCGCAAGUUGAUCUUCAGGCUAUGGACCGU: 0.0853 ratio
CGCUUGGAUGAGGCGGGUGUCACAGAUGAAGUGCUAGAUUCUGCCAUGCAAGCCUUCCUUCUGGAGGUUAUCGUUAAACAUGGGGAGCCGGCACCUUAUUUAUGUAAUAAAGAUCCUUUU: 0.107 ratio
CUUAAUGUUAAUAUUUUUGAAUAAAUGAAGCUAAAAUGUCUGCUUUUGGUACAACACGCAUUAAUAAAAGGUUAAGUUUUGUUUUCCACUGAAGUACGUAAUACUUAACAUCUCAGAAAC: 0.512 ratio
CACAGAGGCACCACCCCCCCCUCCUCCUUUCCACACCUGCAAACCCUUUUACUUGGGCUGAAUAUUUAGUGUAAUUACAUCUCAGCUUUGAGGGCUCCUGUGGCAAAUUCCCGGAUUAAA: 0.97 ratio

Block 2 — method: universal PBM; molecule type: double-stranded DNA, one strand shown; matrix: in vitro; tested at: not given; reading: higher = stronger binding; quantity: E-score
Target: Sal-like protein 4, full length isoform B (SALL4, Homo sapiens, UniProt Q9UJQ4-2, residues 1-616)
Notes: 8-mer, flanks averaged, mean of replicates
TGGCTAAA: 0.132
CACTGAAA: 0.0675
CTTTGGAA: 0.135
AGGAGCCA: -0.161
AGCCACCT: -0.135
ATCCGATG: -0.101
GAGCGGAC: -0.332
ATGGAGAA: 0.115
CGTTTGAA: 0.0642
CGATCGGC: -0.0207
AGGAATAA: 0.251
AGCGGATG: -0.274
ATGCCCAA: -0.117
GATGCTGA: -0.109
CGGTCTAC: -0.0988
AATGCTCA: 0.104
AACGTCAC: -0.0291
ATTATAAC: 0.342
CCGAGTCA: -0.161
CCAGCTGG: -0.233
ACGTCCTC: -0.162
ATTCCACA: 0.0691
CGCCCACC: -0.231
ACTCGACC: -0.222
AGGCTCCC: -0.365

Block 3 — method: RNA Bind-n-Seq; molecule type: RNA; matrix: in vitro; tested at: 1 µM; notes: whole 134-nt RNA, ends assumed; with: 150 mM KCl; baseline: input library; reading: higher = stronger binding; quantity: log2 enrichment
Target: Ras GTPase-activating protein-binding protein 1, RRM domain (G3BP1, Homo sapiens, UniProt Q13283)
Sequence of UniProt Q13283 (whole entry, looked up): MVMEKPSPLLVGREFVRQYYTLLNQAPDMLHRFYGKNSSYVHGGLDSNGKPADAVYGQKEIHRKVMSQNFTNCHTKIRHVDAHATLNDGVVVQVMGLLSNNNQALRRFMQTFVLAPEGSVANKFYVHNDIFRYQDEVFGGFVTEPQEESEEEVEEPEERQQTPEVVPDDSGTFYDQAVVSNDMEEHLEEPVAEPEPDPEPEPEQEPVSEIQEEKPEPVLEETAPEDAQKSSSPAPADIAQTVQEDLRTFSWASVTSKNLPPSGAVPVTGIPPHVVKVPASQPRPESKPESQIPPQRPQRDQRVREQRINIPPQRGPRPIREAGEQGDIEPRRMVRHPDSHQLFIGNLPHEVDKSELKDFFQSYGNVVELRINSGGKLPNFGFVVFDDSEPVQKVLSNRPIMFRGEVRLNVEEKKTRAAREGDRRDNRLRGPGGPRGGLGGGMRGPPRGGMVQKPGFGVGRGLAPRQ
All sequences stand within: GGGAGUUCUACAGUCCGACGAUC … UGGAAUUCUCGGGUGUCAAGG
UGGCCCUGGUGGCAUGCGGGGAGGAAGAGGUGGCCUCAUGGAUCGUGGUGGUCCCGGUGGAAUGUUCAGAGGUGGCCGUGGUGUAGACAG: 1.72
UAACUUUAGAGGAGGAUCUGAUGGAUAUGGCAGUGGACGUGGAUCUGGGGAUGGCUAUAAUGGGUAUGGAGGAGGACCUGGAGGUGGCAA: -0.573
UUCAGUUGGAUGGAUUUAUUGCUCGAAACUGGGCCAAUCAAAGAUCAGCUUUGGGAAGUGCUCUUGAUCCACUUGCUGAUAAAAUACUUA: -0.238
UGGCCCUGGUGGCAUGCGGGGAGGAAGAGGUGGCCUCAUGGAUCGUGGUGGUCCCGGUGGAAUGUUCAGAUGUGGCCGUGGUGGAGACAG: 1.59
GCAGGGAGUAAAAACAAAUGGAAAUGCUUCGGAUAGUGGCAGGGGUGGGGGUUGCUAAGGAAAGGGUGGGAUGGGAGUGGGUAAAGAGUU: 1.16
UGUGCUACACAUCGUAUGUACCGAAUCGGGGCCCCCCCGGGGCCCCCCCGGGCCCCCCCGGGAAAGUAUUAUGUUACGCCGUUCGGAUCU: -0.523
AAGUCCUGUGCUACACAUCGUAUGUACCGAAUCGGGGAAAGGGGUUUGGGGAGGGGAAAGUAUUAUGUUACGCCGUUCGGAUCUGCACUU: 1.45
CUCAAGUCCUGUGCUACACAUCGUAUGUACCGAAUCGGGGCGGGCGGGCGGGGAAAGUAUUAUGUUACGCCGUUCGGAUCUGCACUUCCA: 0.349
UUAGAAGAAUUUGGAAGGCCUUAAAUAUAGUAGCUUAGUUUGAAAAAUGUGAAGGACUUUCGUAACGGAAGUAAUUCAAGAUCAAGAGUA: -0.167
GUCCUGUGCUACACAUCGUAUGUACCGAAUCGGAAAAAGGGGAAAAAGGGAAAAAGGGAAAGUAUUAUGUUACGCCGUUCGGAUCUGCAC: 0.161
CACAGACAACACGCACCCACACAGACACACAGGGAAGGGGUUGGGAUGGGGACAGGGUGCACAGCAGGGCGGGGUAGGACCCCAGCCCCU: 0.245
UCCUGUGCUACACAUCGUAUGUACCGAAUCAAAUUUUUUUAAAUUUAAACCCCCCCAAAAAAGUAUUAUGUUACGCCGUUCGGAUCUGCA: -0.935
UCCUGUGCUACACAUCGUAUGUACCGAAUCGGUUUUUUUGGGUUUUUUUGGUUUUUUUGGAAAGUAUUAUGUUACGCCGUUCGGAUCUGC: -0.103
UAACUUUAGAGGAGGAUCUGAUGGAUAUGGCAGUGGACGUGGAUUUGGGGAUGGCUAUAAUGGGUAUGGAGGAGGACCUGGAGGUCGCAA: -0.42

Block 4 — method: DHFR PCA, deep sequencing; matrix: yeast; with: (+)-ABA 58 µM; baseline: wild-type fitted maximum; reading: higher = stronger binding; quantity: relative binding score
Target: ABI1, truncated, D143A, DHFR fusion (Arabidopsis thaliana)
Notes: methotrexate growth selection, single substitutions
Starting sequence: PYL1, truncated, DHFR fusion (Arabidopsis thaliana); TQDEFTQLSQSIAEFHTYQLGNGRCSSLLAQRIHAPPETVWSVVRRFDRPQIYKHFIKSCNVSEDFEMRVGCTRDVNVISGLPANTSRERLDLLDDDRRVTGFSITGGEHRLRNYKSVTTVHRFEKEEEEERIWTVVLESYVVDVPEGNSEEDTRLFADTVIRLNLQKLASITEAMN
E125Y: 97.8%
I33K: -2.89%
V78E: 7.89%
D153I: -2.54%
S42H: 80.4%
R132L: 91%
L94E: 2.86%
L82V: 70.2%
S80E: 18.4%
V78G: 1.06%
P50W: -6.55%
A158W: -1.04%
A13L: 87.3%
E147G: 71.6%
G102I: 13.2%
G102H: -7.79%
E174F: 46.2%
V70L: 68.2%
F56C: 54.3%

Block 5 — method: RNA Bind-n-Seq; molecule type: RNA; matrix: in vitro; tested at: 365 nM; baseline: no-protein control; reading: higher = stronger binding; quantity: RBNS enrichment (R)
Target: RNA binding protein fox-1 homolog 2, RRM domain, GST-SBP tag (RBFOX2, Homo sapiens, UniProt O43251-10, residues 100-194)
Notes: natural RNA segment, single round, ends assumed
All sequences stand within: GGGAGUUCUACAGUCCGACGAUC … UGGAAUUCUCGGGUGCCAA
Construct (chain): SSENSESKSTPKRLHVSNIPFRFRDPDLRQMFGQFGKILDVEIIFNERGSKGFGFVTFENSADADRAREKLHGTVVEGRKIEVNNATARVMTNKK
GAUUUGGUGCUAAGUUAAUUAGAAACUGGCAGCGUUUUACAGUAGUACACCAGCCUGGAUGUUUUUUCUAAAAUGUUUACCUGGGAGAGCUGGGGUUUGUUUGUGAGGAG: 1.07
GCCCCGAGCUCGGGGAAGGGGUUUUCCCUUCCUCUCUGACCCAGAUCUGCGCGCGGCCUAGCCCGGGCCUCAUUUCUUAUCCCCGCCAAGGGUUUCCUCUCAGUCAUUUG: 0.186
ACCAGGCCAGUCUCCACUCCUCACAAGGAUCUAUGAUGAGCUGCGCAAUUCUUCCCAGGGCCCUGUGACCCUGUGUUCCACCCCGACCCCACACUGGACUAGUCUAUGCC: 0.267
GAGGGCUGGACAUUUGUGGCAGUGCUGAAGGGGGCAUUGCCGGCGAGUAAAGUAUUAUGUUUCUUCUUGUCACCCCAGUUCCCUUGGUGGCAACCCCAGACCCAACCCAU: 0.34
GCCACUGCGCCUGGCCUCAGAAUGCAUUCUUACACAUCUAUCCUAGACAUUUAUAAGCACUCUAAUGGAUAACAAUCCAAGAAUAAAUGAUUGUAAAAGAUGAUGCCGAA: 1.52
GGCUGGAGUUGCUGUGGGGACUGAUUUUCUGGGUGGGGAAGCAGCCAUCUAUUCUUGCAGCCAUCUCAGCCAGGGUCUAUGUCUUAGGACCUUCCUCCGGCCUUCCAUGA: 0.627
CUGCAUCUCCCCUGGCCCCGUUCCCUGCCCUCCUCCCUUCCCUGGGUGACUGCUCUGAGAGGCACUUCACUCACAGGCCUGUGGGAUGCUCCAUGGGGCCCUGCUGGCUC: 0.321
UGUCUCAGCCUUGUUUUUCUAGAGUUGUGUUUUUCAGUCAUUUCUUCAAGAAAAACUAAAAUGAUUUAGUUGGAGCAAAGCUUUAAGUGUGUUGGUGUGCUUCUGUGUGG: 0.889
AGAACUGCUUUCCUAUAUUUAUUUCUUGAUAUUUGAGUAAGGGAUCUGAAUAAACAACCCCAGCCCACUUAACUAUUCACAUCUUAGAGGCAAAUUCUUGCUAUGUAACU: 0.678
UUUAUUAAGAACUCUUUAUUUUCUUCAUACCCUGUUCUCUGCAGUGCUUUCUAACAGCUUCUGGGUGCAGAUUUUCUUCGGCAUCCUUUUGCACUCAGCUUAUUACAGGU: 0.45
ACCCUCCAUUUUUUCAUUACUCAACUUGUUCCCCAAGAAUAUAGUAUUCUAGGAUCCUAUUAGUCUGCUUUUCAUAUACUGUACUUUGAGUAUAGGGAAUGGGCACUGAG: 0.48
UUAUGGGUCUUAUAGGGGAUAAAAUGCUCUUCUUCCAUGCGACACUUCCUUUCCCAUGAACACUUGCAGUUGCUAAGGGACUUUAUUUUGUAACAUAUUAAUUAUAAAUA: 0.477

Block 6 — method: protein binding microarray; molecule type: double-stranded DNA, one strand shown; matrix: in vitro; tested at: not given; baseline: not given; reading: higher = stronger binding; quantity: E-score
Target: Histone acetyltransferase KAT6A, both winged helices, GST fusion (KAT6A, Homo sapiens, UniProt Q92794, residues 1-181)
Notes: 8-mer, flanks averaged, mean of 2 arrays, mostly near background
Target sequence (chain): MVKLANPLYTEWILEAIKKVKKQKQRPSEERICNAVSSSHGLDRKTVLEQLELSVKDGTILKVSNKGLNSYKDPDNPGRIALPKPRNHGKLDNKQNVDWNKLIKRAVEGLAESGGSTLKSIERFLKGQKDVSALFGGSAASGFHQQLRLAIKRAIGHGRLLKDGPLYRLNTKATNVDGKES
GCACTAGA: 0.0425
AATGTACG: -0.0673
AACCACAA: 0.0517
CATGTTCA: -0.115
GATGACGA: -0.0672
GGTCGGGA: 0.0922
AAAGCTGG: -0.162
AGCGGCCC: 0.133
GCGGCACA: 0.21
ATGTAGGC: -0.0486
TAATAATA: -0.0218
CCCTCATA: -0.151
CCCTGGGC: -0.102
CTGATAAG: -0.0513
CTTACCCC: -0.154
ACGTAACA: -0.0877
CTAACGTA: 0.0375
AAAAGATA: -0.0266
CATCAGCG: 0.225
ACCCTCGC: 0.0448
AAGAATGT: -0.136
CGGCGGGC: 0.353
GGAGTTTA: -0.0758
CCACAACC: 0.00588
AGCTGTCA: -0.239

For quick reference, copied from above (block 6):
CTTACCCC: -0.154
CTGATAAG: -0.0513
TAATAATA: -0.0218
ACCCTCGC: 0.0448
AAAGCTGG: -0.162
CATGTTCA: -0.115
GGAGTTTA: -0.0758
GGTCGGGA: 0.0922
GATGACGA: -0.0672
CCCTGGGC: -0.102
GCGGCACA: 0.21
AAAAGATA: -0.0266
CATCAGCG: 0.225
AGCTGTCA: -0.239
CGGCGGGC: 0.353
